# Results pooled from the literature.
# The chains behind the UniProt entries cited, without tags or fusion partners. Residues count along the entry.
# UniProt Q14833, 33-912 limits assumed: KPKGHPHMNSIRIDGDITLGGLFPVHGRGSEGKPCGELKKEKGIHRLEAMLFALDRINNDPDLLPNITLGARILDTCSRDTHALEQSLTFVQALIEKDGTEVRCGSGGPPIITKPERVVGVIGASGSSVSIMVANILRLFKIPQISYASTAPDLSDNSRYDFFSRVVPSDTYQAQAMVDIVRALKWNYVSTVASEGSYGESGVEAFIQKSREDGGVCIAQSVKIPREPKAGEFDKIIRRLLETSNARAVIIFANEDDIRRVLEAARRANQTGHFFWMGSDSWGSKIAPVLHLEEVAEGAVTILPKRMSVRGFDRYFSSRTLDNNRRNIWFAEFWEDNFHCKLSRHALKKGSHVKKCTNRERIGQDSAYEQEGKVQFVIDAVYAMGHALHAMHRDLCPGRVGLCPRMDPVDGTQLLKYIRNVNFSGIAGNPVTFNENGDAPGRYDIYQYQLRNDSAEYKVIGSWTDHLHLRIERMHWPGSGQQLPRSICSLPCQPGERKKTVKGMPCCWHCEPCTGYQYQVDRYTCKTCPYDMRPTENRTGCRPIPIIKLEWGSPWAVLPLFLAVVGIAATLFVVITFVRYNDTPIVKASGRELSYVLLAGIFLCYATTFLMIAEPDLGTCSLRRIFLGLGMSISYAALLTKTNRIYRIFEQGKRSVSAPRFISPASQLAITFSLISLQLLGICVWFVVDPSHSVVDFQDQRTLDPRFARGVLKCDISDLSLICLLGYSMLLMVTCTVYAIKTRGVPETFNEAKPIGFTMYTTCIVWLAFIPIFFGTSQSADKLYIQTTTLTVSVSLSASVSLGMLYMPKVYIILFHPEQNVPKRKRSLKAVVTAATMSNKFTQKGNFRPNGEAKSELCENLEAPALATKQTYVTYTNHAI
# UniProt P46934, whole entry, looked up: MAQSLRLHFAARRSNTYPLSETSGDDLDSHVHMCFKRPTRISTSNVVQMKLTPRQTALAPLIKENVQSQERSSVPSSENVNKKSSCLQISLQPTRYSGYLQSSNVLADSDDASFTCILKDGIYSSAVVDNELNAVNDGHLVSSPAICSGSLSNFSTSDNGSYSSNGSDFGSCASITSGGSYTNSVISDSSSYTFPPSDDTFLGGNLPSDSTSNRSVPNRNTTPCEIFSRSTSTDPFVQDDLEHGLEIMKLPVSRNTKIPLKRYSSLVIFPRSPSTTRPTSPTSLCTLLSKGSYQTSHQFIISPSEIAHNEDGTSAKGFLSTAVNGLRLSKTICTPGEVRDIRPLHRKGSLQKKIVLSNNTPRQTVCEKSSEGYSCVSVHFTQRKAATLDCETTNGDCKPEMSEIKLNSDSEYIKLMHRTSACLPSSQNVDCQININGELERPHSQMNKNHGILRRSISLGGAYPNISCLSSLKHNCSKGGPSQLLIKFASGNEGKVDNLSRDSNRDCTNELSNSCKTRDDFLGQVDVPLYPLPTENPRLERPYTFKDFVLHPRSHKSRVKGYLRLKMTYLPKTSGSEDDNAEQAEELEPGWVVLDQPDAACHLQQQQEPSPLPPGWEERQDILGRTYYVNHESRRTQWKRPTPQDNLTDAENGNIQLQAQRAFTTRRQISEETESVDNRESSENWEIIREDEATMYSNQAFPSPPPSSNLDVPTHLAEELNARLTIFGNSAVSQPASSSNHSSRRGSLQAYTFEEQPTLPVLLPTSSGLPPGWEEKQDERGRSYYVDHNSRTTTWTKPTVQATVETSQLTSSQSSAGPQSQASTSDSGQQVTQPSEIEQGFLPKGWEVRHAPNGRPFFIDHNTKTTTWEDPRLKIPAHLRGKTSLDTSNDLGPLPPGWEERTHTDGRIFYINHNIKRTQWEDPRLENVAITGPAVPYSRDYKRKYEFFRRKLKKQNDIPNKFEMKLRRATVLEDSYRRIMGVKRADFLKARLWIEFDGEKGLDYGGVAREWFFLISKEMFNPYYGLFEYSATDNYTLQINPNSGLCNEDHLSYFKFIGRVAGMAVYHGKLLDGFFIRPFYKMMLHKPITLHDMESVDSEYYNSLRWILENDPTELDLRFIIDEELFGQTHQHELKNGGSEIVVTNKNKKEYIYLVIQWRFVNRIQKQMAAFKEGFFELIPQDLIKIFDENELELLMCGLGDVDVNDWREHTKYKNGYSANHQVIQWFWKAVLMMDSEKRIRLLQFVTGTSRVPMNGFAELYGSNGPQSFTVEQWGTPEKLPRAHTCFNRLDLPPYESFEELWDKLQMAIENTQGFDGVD
# UniProt O00519, whole entry: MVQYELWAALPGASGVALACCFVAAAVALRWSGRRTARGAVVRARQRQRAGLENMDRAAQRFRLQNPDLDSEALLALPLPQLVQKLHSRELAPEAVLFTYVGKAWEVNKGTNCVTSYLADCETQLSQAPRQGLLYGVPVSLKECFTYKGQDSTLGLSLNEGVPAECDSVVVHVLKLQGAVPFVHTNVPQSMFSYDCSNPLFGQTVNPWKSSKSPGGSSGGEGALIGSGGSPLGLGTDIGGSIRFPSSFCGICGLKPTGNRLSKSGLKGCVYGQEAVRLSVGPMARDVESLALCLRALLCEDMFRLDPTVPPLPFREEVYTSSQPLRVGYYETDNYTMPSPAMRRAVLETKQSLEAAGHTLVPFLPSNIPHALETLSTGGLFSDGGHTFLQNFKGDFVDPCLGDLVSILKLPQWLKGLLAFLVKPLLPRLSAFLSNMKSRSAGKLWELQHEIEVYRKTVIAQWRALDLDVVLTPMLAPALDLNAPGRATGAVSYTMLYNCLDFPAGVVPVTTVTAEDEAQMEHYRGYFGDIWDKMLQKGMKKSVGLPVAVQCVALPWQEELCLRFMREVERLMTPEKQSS
# UniProt Q99797, 36-713 limits assumed: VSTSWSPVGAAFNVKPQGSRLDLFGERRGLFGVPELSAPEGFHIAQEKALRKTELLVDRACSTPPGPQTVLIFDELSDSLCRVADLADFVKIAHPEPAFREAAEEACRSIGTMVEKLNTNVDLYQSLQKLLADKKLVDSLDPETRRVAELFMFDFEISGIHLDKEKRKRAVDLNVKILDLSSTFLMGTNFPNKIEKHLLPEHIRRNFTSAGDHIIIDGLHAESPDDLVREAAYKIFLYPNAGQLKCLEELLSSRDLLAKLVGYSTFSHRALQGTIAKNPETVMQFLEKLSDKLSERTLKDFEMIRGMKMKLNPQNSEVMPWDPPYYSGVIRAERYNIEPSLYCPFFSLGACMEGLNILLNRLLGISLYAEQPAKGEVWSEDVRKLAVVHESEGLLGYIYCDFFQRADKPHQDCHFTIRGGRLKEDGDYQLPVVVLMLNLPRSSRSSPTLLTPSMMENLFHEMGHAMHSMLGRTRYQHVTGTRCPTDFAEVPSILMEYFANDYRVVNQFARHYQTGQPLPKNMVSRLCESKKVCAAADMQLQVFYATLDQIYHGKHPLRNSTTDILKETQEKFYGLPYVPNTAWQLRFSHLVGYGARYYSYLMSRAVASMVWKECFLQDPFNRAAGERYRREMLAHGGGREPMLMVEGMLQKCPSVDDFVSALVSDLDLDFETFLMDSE
# UniProt P43235, 115-329 limits assumed: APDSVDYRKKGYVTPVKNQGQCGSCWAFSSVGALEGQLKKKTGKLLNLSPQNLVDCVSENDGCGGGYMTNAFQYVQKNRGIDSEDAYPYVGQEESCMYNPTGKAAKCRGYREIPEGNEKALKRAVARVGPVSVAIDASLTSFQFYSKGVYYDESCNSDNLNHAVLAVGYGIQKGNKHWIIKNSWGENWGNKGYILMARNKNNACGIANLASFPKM
# UniProt Q06187, whole entry: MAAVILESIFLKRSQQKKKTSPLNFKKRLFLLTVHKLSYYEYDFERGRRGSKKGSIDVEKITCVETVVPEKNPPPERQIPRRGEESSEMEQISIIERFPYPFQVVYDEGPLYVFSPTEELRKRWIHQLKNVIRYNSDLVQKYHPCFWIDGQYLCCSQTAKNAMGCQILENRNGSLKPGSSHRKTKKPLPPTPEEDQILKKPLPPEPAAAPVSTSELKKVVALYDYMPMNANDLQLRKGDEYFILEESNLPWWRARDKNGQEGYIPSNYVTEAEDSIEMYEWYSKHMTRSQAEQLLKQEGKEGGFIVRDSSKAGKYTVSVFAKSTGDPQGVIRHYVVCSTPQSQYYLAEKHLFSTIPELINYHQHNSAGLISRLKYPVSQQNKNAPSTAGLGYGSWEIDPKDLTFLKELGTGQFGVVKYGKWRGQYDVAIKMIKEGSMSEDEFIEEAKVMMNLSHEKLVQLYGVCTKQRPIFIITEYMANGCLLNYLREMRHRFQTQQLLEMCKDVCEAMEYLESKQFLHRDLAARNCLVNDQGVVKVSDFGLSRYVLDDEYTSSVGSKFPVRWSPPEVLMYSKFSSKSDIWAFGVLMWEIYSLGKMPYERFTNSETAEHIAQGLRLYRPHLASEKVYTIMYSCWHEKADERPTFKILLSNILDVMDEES
# UniProt P43220, whole entry, looked up: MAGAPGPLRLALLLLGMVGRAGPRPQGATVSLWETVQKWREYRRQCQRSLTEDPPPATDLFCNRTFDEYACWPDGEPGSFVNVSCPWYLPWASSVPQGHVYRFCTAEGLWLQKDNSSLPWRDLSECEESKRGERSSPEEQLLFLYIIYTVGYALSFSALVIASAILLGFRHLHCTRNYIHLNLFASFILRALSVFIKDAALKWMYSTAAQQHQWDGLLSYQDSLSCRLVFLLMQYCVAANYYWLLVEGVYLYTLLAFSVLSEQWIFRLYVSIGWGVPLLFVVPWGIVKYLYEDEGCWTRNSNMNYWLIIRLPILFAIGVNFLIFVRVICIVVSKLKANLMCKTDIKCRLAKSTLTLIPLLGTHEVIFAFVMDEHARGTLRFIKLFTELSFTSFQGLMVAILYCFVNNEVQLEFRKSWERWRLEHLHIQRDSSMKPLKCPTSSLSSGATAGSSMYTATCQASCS
# UniProt P05067, 672-713 limits assumed: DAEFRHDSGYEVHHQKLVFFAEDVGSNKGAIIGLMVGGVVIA
# UniProt P35222, whole entry, looked up: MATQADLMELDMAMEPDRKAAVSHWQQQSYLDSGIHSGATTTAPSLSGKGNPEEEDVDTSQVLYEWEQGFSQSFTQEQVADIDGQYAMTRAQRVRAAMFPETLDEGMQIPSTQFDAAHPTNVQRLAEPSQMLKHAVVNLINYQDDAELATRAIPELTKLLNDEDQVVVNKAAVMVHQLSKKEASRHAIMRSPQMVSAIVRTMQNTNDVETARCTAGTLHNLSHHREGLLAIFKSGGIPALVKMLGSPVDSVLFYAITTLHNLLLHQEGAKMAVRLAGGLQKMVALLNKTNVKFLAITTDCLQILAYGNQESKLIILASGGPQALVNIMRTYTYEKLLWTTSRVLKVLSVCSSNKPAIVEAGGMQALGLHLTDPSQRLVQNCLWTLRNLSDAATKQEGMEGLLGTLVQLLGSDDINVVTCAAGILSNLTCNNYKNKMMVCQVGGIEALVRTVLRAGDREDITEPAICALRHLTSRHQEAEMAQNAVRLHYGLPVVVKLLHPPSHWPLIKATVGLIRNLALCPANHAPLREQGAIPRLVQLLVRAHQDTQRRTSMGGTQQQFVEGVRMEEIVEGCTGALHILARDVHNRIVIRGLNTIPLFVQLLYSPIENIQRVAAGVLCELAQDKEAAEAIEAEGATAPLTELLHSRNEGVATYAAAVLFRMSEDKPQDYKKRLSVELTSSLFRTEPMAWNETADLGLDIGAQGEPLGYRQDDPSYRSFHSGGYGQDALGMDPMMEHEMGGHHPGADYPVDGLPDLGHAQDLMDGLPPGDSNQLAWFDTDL
# UniProt Q9UDY8, 329-566 limits assumed: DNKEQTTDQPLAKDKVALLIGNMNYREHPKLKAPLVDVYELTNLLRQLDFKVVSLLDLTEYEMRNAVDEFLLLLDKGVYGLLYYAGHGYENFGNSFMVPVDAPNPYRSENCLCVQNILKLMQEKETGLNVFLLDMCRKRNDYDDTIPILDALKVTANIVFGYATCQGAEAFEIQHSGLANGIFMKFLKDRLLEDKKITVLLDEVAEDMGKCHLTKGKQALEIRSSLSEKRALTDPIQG
# UniProt P45983, 1-384 isoform 3: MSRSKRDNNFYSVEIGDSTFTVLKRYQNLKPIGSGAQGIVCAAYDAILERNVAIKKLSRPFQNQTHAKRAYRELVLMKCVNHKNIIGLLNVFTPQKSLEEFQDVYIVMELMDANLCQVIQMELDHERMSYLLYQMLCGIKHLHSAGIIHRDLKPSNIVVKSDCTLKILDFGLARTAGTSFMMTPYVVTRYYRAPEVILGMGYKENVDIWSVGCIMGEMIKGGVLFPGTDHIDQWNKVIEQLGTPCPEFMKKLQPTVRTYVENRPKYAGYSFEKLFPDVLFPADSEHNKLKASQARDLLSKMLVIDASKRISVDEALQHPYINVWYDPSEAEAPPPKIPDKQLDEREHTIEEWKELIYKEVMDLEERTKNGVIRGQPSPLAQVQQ
# UniProt Q923Y9, whole entry N287Y: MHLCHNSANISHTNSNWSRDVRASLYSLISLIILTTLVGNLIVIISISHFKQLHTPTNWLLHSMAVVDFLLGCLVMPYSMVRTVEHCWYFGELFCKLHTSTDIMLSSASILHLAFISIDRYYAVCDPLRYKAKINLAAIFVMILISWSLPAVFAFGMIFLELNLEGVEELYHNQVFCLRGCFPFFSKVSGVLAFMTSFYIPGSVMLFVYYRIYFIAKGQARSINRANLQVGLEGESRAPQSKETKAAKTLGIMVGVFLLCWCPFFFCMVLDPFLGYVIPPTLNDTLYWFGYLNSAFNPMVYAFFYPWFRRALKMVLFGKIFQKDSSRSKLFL
# Protocols differ between the studies behind these lines. Values joined by “and” are separate records of one study, mostly repeats; a detail may differ. Numbers after ± are the reported error.
# GRM4: Metabotropic glutamate receptor 4 (GRM4, Homo sapiens, UniProt Q14833)
# Lysophospholipase-like protein 1: Lysophospholipase-like protein 1 (Mus musculus, UniProt Q3UFF7)
# E3 ubiquitin-protein ligase NEDD4: E3 ubiquitin-protein ligase NEDD4 (Homo sapiens, UniProt P46934)
Compound,target,assay,system,setting,how to read,quantity,result
O=C(OC(C(F)(F)F)C(F)(F)F)N1Cc2cccc(Br)c2C1,"FAAH (Homo sapiens, UniProt O00519)","enzyme activity, inhibitor, fluorescence AAMCA substrate",,1 µM,,activity,inactive
CC(C)[C@H](NC(=O)c1ccccc1N)C(=O)N[C@@H](C)C(=O)N[C@@H](C)C(=O)N[C@@H](CCC(N)=O)C(=O)N[C@H](C(=O)N[C@@H](CCCCN)C(=O)N[C@H](C(=O)N[C@@H](CCCCNc1ccc([N+](=O)[O-])cc1[N+](=O)[O-])C(N)=O)[C@@H](C)O)[C@@H](C)O,"Mitochondrial intermediate peptidase (MIPEP, Homo sapiens, UniProt Q99797)","substrate, FRET peptide hydrolysis",,,,kcat/Km,5000 M⁻¹ s⁻¹
NC(=O)c1cn(-c2ccc(F)cc2)c2ccc(CCc3cccnc3)cc2c1=O,"Grm2 (Rattus norvegicus, UniProt P31421)","calcium mobilization, negative allosteric modulator",,"30 µM, added: glutamate 100 µM",relative to: glutamate maximum,response,1.9 ± 0.11%
O=C(NCc1ccc(F)cc1)C(=O)[C@H](Cc1ccccc1)NC(=O)[C@H]1CCC(=O)N1Cc1ccc(F)cc1,"Cathepsin K (CTSK, Homo sapiens, UniProt P43235)","enzyme activity, inhibitor",,1 µM,,inhibition,10.4%
O=C(Nc1ccccc1)C12CC1/C(=N\O)c1cc(F)ccc1O2 (stereo not shown),GRM4,"positive allosteric modulator, calcium mobilization",CHO expressing Gqi5,"concentration not given, added: glutamate EC20",relative to: glutamate 1 mM,response,245%
Nc1nc(SCc2ccc(Cl)cc2)nn1S(=O)(=O)c1ccc2c(c1)CCC2,Lysophospholipase-like protein 1,"activator, gel-based ABPP, FP-rhodamine",HEK293 overexpressing Lysophospholipase-like protein 1,10 µM,,activation,49%
COc1ccc(NC(=O)CN2CCCN(S(=O)(=O)c3ccc(C)cc3)CC2)c(OC)c1,GRM4,"calcium mobilization, positive allosteric modulator",CHO cells with Gqi5,added: glutamate,relative to: PHCCC maximal response,maximal response,48.7%
Nc1ncnc2c1c(-c1ccc(C(=O)Nc3cc(C(F)(F)F)ccn3)cc1)nn2[C@@H]1CCCN(C(=O)C2CC2)C1,"Tyrosine-protein kinase BTK, non-phosphorylated (BTK, Homo sapiens, UniProt Q06187)",TR-FRET binding kinetics,,"37 °C, unphosphorylated protein",,koff,0.000763 ± 8.5e-05 s⁻¹
O=C1CCC(N2Cc3cc(-c4nc5ccccn5c4NC45CC6CC(CC(C6)C4)C5)ccc3C2=O)C(=O)N1 (stereo not shown),"WEE1/CRBN (Homo sapiens, UniProt P30291+Q96SW2)","degrader, HiBiT",MOLM-14,5 h,,DC50,0.35 nM
O=C(O)c1ccccc1Nc1c(C(=O)O)ccnc1C(=O)O,"fdhA (Pseudomonas putida, UniProt P46154)","inhibitor, spectrophotometric",,"200 µM, counterscreen",,remaining activity,73%
O=C(Nc1ccc(F)c(F)c1)C12CC1/C(=N\O)c1ccccc1O2 (stereo not shown),GRM4,"positive allosteric modulator, calcium mobilization",CHO expressing Gqi5,"concentration not given, added: glutamate EC20",relative to: glutamate 1 mM,response,110 ± 27.4%
CCS(=O)(=O)c1nc(-c2ccc(F)cc2)cc(C(F)F)n1,"Secretin receptor (SCTR, Homo sapiens, UniProt P47872)","binding, TR-FRET competition binding",HEK293 cell membranes,added: fluorescent secretin 6 nM,,Emax,no effect
CCN(CC)c1ccc2c(-c3ccccc3C(=O)N(C)CCCC(=O)N[C@@H](CC(C)C)C(=O)N[C@@H](CCCNC(=N)N)C(=O)N[C@@H](CCCNC(=N)N)C(=O)N[C@@H](C)C(=O)N[C@@H](CO)C(=O)N[C@@H](CC(C)C)C(=O)NCC(=O)O)c3ccc(=[N+](CC)CC)cc-3oc2c1,"PRKACA (Homo sapiens, UniProt P17612)","substrate, HPLC-Vis, large-scale reaction",,"100 µM, 1 h, pH 7.4, 25 °C, 10 mM MgCl2, added: ATP 1 mM, PKACα 4 nM",,conversion,~80%
CCOC(=O)/C=C/CNCCCN1c2ccccc2CCc2ccc(Br)cc21,E3 ubiquitin-protein ligase NEDD4,"inhibitor, Ub-TR-FRET",,"100 µM, 1 h preincubation, HECT domain, added: ATP 2 mM",higher = more ubiquitination,ubiquitination TR-FRET signal AUC,37600 a.u. and 34100 a.u. and 31300 a.u.
Cc1ccc(C(=O)Nc2ccc(F)cc2C(=O)O)cc1S(=O)(=O)Nc1cccc(Cl)c1,"Replication protein A 70 kDa DNA-binding subunit, N-terminal domain (RPA1, Homo sapiens, UniProt P27694)","binding, fluorescence polarisation competition",,added: FITC-ATRIP probe,,ligand efficiency,0.2
CC(=O)NCCCC[C@H](NC(C)=O)C(=O)Nc1ccc2c(C)cc(=O)oc2c1,"HDAC6 (Homo sapiens, UniProt Q9UBN7)","deacetylation, substrate",,"25 °C, added: 10 to 50 nM enzyme",,kcat/KM,19000 ± 7000 M⁻¹ s⁻¹
COc1ccc2c(c1)S(=O)(=O)N(CCCCCc1ccccc1)C(=O)O2,"Patatin-like phospholipase domain-containing protein 4 (PNPLA4, Homo sapiens, UniProt P41247)","reversibility of inhibition, FP-rhodamine labelling after gel filtration",,"25 µM, 8 h post-filtration",,enzyme reactivation,< 10%
COc1cc(C(=O)N2CCC(N3CCN(C)CC3)CC2)ccc1Nc1ncc2c(n1)N(C1CCCC1)c1ccccc1C(=O)N2C,"Bromodomain-containing protein 4, BD1 (BRD4, Homo sapiens, UniProt O60885)",differential scanning fluorimetry,,"10 µM, protein 2 µM",,ΔTm,4.1 ± 0.24 °C
CC(C)(Cn1cc(-c2ccc(B(O)O)cc2)nn1)c1c[nH]c2ccccc12,"GLP1R (Homo sapiens, UniProt P43220)","cAMP accumulation, positive allosteric modulator, HTRF",,"0.6 µM, purified compound, added: GLP-1(9-36) at EC20",relative to: BETP,Emax,99 ± 1%
CC(C)OC(=O)CCC(C(=O)/C=C/c1ccc(O)c(OC(F)(F)F)c1)C(=O)/C=C/c1ccc(O)c(OC(F)(F)F)c1,"APP (Homo sapiens, UniProt P05067)","SDS-PAGE western blot, item: Aβ1-42 species 75-200 kDa",,"30 µM, 24 h, 37 °C, added: Aβ 10 µM",relative to: DMSO control,Aβ band density,2000 ± 450%
Nc1nc(NCCc2ccc(Cl)cc2)nn1S(=O)(=O)c1cccc(Cl)c1,Lysophospholipase-like protein 1,"activator, gel-based ABPP FP-rhodamine",,,relative to: DMSO,probe labelling,1.2 fold
Cc1cccc(-c2noc(-c3cn(CC(=O)NCc4ccc5c(c4)OCO5)c4nc(C)ccc4c3=O)n2)c1,"Catenin beta-1, residues 141-305 (CTNNB1, Homo sapiens, UniProt P35222)",isothermal titration calorimetry,,"concentration not given, 25 °C",,binding stoichiometry,1.12
CC(=O)N[C@@H](CC(C)C)C(=O)N[C@H](C(=O)N[C@@H](CO)C(=O)N[C@@H](CCCNC(=N)N)C(=O)Nc1ccc2c(CC(N)=O)cc(=O)oc2c1)C(C)C,"MALT1 (Homo sapiens, UniProt Q9UDY8)","substrate, fluorogenic peptide hydrolysis",,"pH 7.5, catalytic domain 285 or 294 nM",,kcat/Km,11000 M⁻¹ s⁻¹
COC(=O)[C@@]1(C)C=C(C(=O)Nc2cccc(C(=O)NC34CC(Nc5nccc(-c6cccnc6)n5)(C3)C4)c2)C(=O)CC1,"MAPK8 (Homo sapiens, UniProt P45983)","kinase activity, inhibitor",,"0.1829 µM, unit not given, added: 10 mM GSH",relative to: DMSO,remaining activity,0.166
Nc1ccc([N+](=O)[O-])cc1-c1nc2ccccc2[nH]c1=O,"Protein diaphanous homolog 1, FH2 domain (Diaph1, Mus musculus, UniProt O08808)","actin assembly, inhibitor, pyrene-actin polymerization",,,,Hill coefficient,8.3
CCOC(=O)/C=C/CNCCCCCN1c2ccccc2CCc2ccc(Cl)cc21,E3 ubiquitin-protein ligase NEDD4,"inhibitor, Ub-TR-FRET",,"0.1372 µM, 1 h preincubation, HECT domain, added: ATP 2 mM",higher = more ubiquitination,ubiquitination TR-FRET signal AUC,70000 a.u. and 68200 a.u. and 71300 a.u. and 93300 a.u. and 94900 a.u. and 97500 a.u.
COc1ccc(NC(=O)CN2CCCN(S(=O)(=O)C(C)C)CC2)c(OC)c1,GRM4,"calcium mobilization, positive allosteric modulator",CHO cells with Gqi5,added: glutamate,relative to: PHCCC maximal response,maximal response,17.5 ± 0.7%
NCC(c1ccccc1)c1cccc(Oc2ccccc2)c1 (stereo not shown),"Trace amine-associated receptor 1 (Rattus norvegicus, UniProt Q923Y9, N287Y)","cAMP production, agonist",,mutant,relative to: wild type,efficacy decrease,46%

# Excerpt of the above:
Compound,target,assay,system,setting,how to read,quantity,result
CCN(CC)c1ccc2c(-c3ccccc3C(=O)N(C)CCCC(=O)N[C@@H](CC(C)C)C(=O)N[C@@H](CCCNC(=N)N)C(=O)N[C@@H](CCCNC(=N)N)C(=O)N[C@@H](C)C(=O)N[C@@H](CO)C(=O)N[C@@H](CC(C)C)C(=O)NCC(=O)O)c3ccc(=[N+](CC)CC)cc-3oc2c1,"PRKACA (Homo sapiens, UniProt P17612)","substrate, HPLC-Vis, large-scale reaction",,"100 µM, 1 h, pH 7.4, 25 °C, 10 mM MgCl2, added: ATP 1 mM, PKACα 4 nM",,conversion,~80%
CCS(=O)(=O)c1nc(-c2ccc(F)cc2)cc(C(F)F)n1,"Secretin receptor (SCTR, Homo sapiens, UniProt P47872)","binding, TR-FRET competition binding",HEK293 cell membranes,added: fluorescent secretin 6 nM,,Emax,no effect
CC(=O)N[C@@H](CC(C)C)C(=O)N[C@H](C(=O)N[C@@H](CO)C(=O)N[C@@H](CCCNC(=N)N)C(=O)Nc1ccc2c(CC(N)=O)cc(=O)oc2c1)C(C)C,"MALT1 (Homo sapiens, UniProt Q9UDY8)","substrate, fluorogenic peptide hydrolysis",,"pH 7.5, catalytic domain 285 or 294 nM",,kcat/Km,11000 M⁻¹ s⁻¹
